Published values from different studies.
Lines come from different studies, so protocols differ. Several values in a cell are separate wells, animals, samples, runs or records. Numbers after ± are the reported error. ≈ marks a conversion by molar mass, not a printed value.
Organism: Staphylococcus aureus

For `CC(C)C[C@H](NC(=O)[C@H](CCCCN)NC(=O)OCC1c2ccccc2-c2ccccc21)C(=O)N[C@H](C(=O)N[C@@H](Cc1ccccc1)C(=O)N[C@@H](Cc1ccccc1)C(=O)N[C@@H](CCCCN)C(=O)NCC(=O)N[C@@H](Cc1ccccc1)C(=O)N[C@@H](C)C(=O)N[C@@H](Cc1c[nH]c2ccccc12)C(=O)N[C@@H](CC(N)=O)C(=O)N[C@H](C(=O)N[C@H]1CSSC[C@@H](C(=O)N[C@@H](Cc2c[nH]cn2)C(=O)N[C@@H](CCCNC(=N)N)C(=O)N[C@@H](CCCNC(=N)N)C(=O)N[C@@H](C)C(=O)N[C@@H](CC(N)=O)C(N)=O)NC(=O)[C@H](C(C)C)NC(=O)[C@H](CCCNC(=N)N)NC(=O)[C@H](C(C)C)NC(=O)CNC(=O)[C@H](CC(N)=O)NC(=O)[C@H](CCCNC(=N)N)NC(=O)[C@H](Cc2ccc(O)cc2)NC(=O)[C@H](C(C)C)NC1=O)C(C)C)C(C)C`, the EC50 was 3.31 µM (bactericidal activity; ATCC 43300; 24 h).
`C[C@@H](O)[C@H]1C(=O)N2C(C(=O)O)=C(S[C@@H]3CN[C@H](C(=O)N(C)C)C3)[C@H](C)[C@H]12` — result for antibacterial activity: “inactive” (USA300 FPR3757; concentration not given, 24 h).
With `CC[C@H](C)[C@H](NC(=O)[C@H](Cc1c[nH]c2ccccc12)NC(=O)[C@@H](NC(=O)[C@H](Cc1ccccc1)NC(=O)[C@@H]1CCCN1C(=O)[C@@H](NC(=O)[C@H](C)N)[C@@H](C)CC)[C@@H](C)CC)C(=O)N[C@@H](Cc1ccccc1)C(=O)N[C@@H](CCCNC(=N)N)C(=O)N[C@@H](CC(C)C)C(=O)N[C@@H](CC(C)C)C(=O)N[C@@H](CCCNC(=N)N)C(=O)N[C@@H](CCCCN)C(=O)NCC(N)=O` the MBC was 15 µM (≈ 25.9 µg/mL) (ATCC 19609; 18 h, 37 °C).
For `CC[C@H](C)[C@H](NC(=O)[C@H](C)NC(=O)[C@H](CCCCN)NC(=O)[C@H](CCCNC(=N)N)NC(=O)[C@H](CCCCN)NC(=O)[C@H](CCCNC(=N)N)NC(=O)[C@H](CCCCN)NC(=O)[C@@H](N)CCCNC(=N)N)C(=O)N[C@@H](CO)C(=O)NCC(=O)N[C@@H](CO)C(=O)N[C@@H](CC(C)C)C(=O)N[C@H](C(=O)N[C@H](C(=O)N[C@@H](CC(C)C)C(=O)N[C@@H](Cc1ccccc1)C(=O)NCC(=O)N[C@@H](Cc1ccc(O)cc1)C(N)=O)[C@@H](C)O)C(C)C`, the FICI was 0.13 (checkerboard; unit not given, together with: oritavancin; lower means synergy).
`O=[N+]([O-])c1cc2c(ccc3c2ccc2cc([N+](=O)[O-])oc23)o1` gave an MIC90 of > 32 µg/mL (REMA).
For `Cc1c2c(nn1C)CSCc1cc(n(C)n1)CSc1cc(c3ccccc3c1)OCCCc1c(C(=O)O)n(C)c3c-2c(Cl)ccc13`, “log2 fold change” read 2.53 (label-free proteomics, refers to: katA; SA113; concentration not given; baseline: untreated).
For `CC[C@H](C)[C@H](NC(=O)[C@H](Cc1ccccc1)NC(=O)[C@@H](NC(=O)[C@H](Cc1ccccc1)NC(=O)[C@@H]1CCCN1C(=O)[C@@H](NC(=O)[C@H](C)N)[C@@H](C)CC)[C@@H](C)CC)C(=O)N[C@@H](Cc1c[nH]c2ccccc12)C(=O)N[C@@H](CCCNC(=N)N)C(=O)N[C@@H](CC(C)C)C(=O)N[C@@H](CC(C)C)C(=O)N[C@@H](CCCNC(=N)N)C(=O)N[C@@H](CCCCN)C(=O)NCC(N)=O`, the MBC was 1.88 µM (≈ 3.25 µg/mL) (ATCC 35556; 18 h, 37 °C).
For `CN[C@H](CC(C)C)C(=O)N[C@H]1C(=O)N[C@@H](CC(N)=O)C(=O)N[C@H]2C(=O)N[C@H]3C(=O)N[C@H](C(=O)N[C@H](C(=O)O)c4cc(O)cc(O)c4-c4cc3ccc4O)[C@H](O)c3ccc(c(Cl)c3)Oc3cc2cc(c3O[C@@H]2O[C@H](CO)[C@@H](O)[C@H](O)[C@H]2O[C@H]2C[C@](C)(N)[C@H](O)[C@H](C)O2)Oc2ccc(cc2Cl)[C@H]1O`, “inhibition zone diameter” read 13 mm (ATCC 25923; 128 µg per disk).
With `CN[C@H](CC(C)C)C(=O)N[C@H]1C(=O)N[C@@H](CC(N)=O)C(=O)N[C@H]2C(=O)N[C@H]3C(=O)N[C@H](C(=O)N[C@H](C(=O)O)c4cc(O)cc(O)c4-c4cc3ccc4O)[C@H](O)c3ccc(c(Cl)c3)Oc3cc2cc(c3O[C@@H]2O[C@H](CO)[C@@H](O)[C@H](O)[C@H]2O[C@H]2C[C@](C)(N)[C@H](O)[C@H](C)O2)Oc2ccc(cc2Cl)[C@H]1O` the biofilm inhibition was 19% (ATCC 33591 MRSA; 2×MIC).
For `Oc1c(Br)cc(Br)c2nc3ccccc3nc12`, “zone of inhibition” read 5.45 ± 0.34 cm² (MRSA 1707, DMSO stock; 10 µL of 10 mM, 16 h, without glutathione).
With `CC[C@H](C)[C@H](NC(=O)[C@H](CCCCN)NC(=O)[C@H](CCCCN)NC(=O)CNC(=O)[C@H](CCCCN)NC(=O)[C@H](CC(C)C)NC(=O)[C@H](CCCCN)NC(=O)[C@H](CCCNC(=N)N)NC(=O)[C@@H](NC(=O)[C@H](CC(C)C)NC(=O)[C@H](CCCNC(=N)N)NC(=O)[C@@H](N)CCCNC(=N)N)[C@@H](C)CC)C(=O)N[C@@H](Cc1ccc(O)cc1)C(=O)N[C@@H](CC(C)C)C(=O)N[C@@H](Cc1ccc(O)cc1)C(=O)N[C@@H](Cc1ccccc1)C(=O)N[C@@H](CCCCN)C(=O)N[C@@H](CC(C)C)C(=O)N[C@@H](CCC(N)=O)C(=O)N[C@@H](CC(C)C)C(=O)N[C@@H](CC(C)C)C(=O)N[C@@H](CCCCN)C(=O)N[C@@H](CCCCN)C(N)=O` the MIC was 64 µM (≈ 189 µg/mL) (broth microdilution; KCTC 1621, Mueller-Hinton broth; together with: FeCl3 4 µM).
The MIC90 of `COc1cc2ccc3oc([N+](=O)[O-])cc3c2cc1OC` is reported as > 32 µg/mL (REMA).
For `O=C(O)c1cn(C2CC2)c2cc(N3CCNCC3)c(F)cc2c1=O`, the biofilm inhibition was 91.2% (MRSA ATCC 33591; 1/4 × MIC).
For `CC(C)CCCCCCCCCCCCCCc1cc(O)cc(O)c1`, the IC50 was > 200 µM (bacterial growth; MRSA USA300).
The MIC90 of `N#Cc1ccc2c(ccc3oc([N+](=O)[O-])cc32)c1` is reported as 2 µg/mL (≈ 8.4 µM) (REMA).
`C=CC[C@@H]1c2ccc(OC)c(OC)c2CN2CCc3cc4c(cc3[C@H]12)OCO4` — result for “relative wound size”: 1.21 and 0.97 and 1.01 and 1 (P2rx7 A312V/A312V mice, skin wound infection; dose not given, day 2; baseline: day 0).
`OB(O)c1csc2ccccc12` has a biofilm formation of 27.3% and 32.7% and 32.1% (crystal violet; USA300 wild type; 50 µM; baseline: wild type untreated).
The MIC90 of `O=[N+]([O-])c1cc2c(ccc3c4cc([N+](=O)[O-])oc4ccc23)o1` is reported as 4 µg/mL (≈ 13.4 µM) (REMA).
